# Published values pooled from the literature.
# Every numbered part comes from another study and shows a few of its results, in no order.

# Series 1 — technique: RNA Bind-n-Seq; molecule type: RNA; matrix: in vitro; concentration: not given; setting: RNA with constant flanks, ends assumed; baseline: input RNA pool; direction: higher = stronger binding
# Target: RING finger protein unkempt homolog, zinc fingers 1-6, GST-SBP tag (UNK, Homo sapiens, UniProt Q9C0B0, residues 30-357)
# All sequences stand within: GGGAGUUCUACAGUCCGACGAUC … CAACAGAGGAUUGAGCAUCA
# Target sequence (chain): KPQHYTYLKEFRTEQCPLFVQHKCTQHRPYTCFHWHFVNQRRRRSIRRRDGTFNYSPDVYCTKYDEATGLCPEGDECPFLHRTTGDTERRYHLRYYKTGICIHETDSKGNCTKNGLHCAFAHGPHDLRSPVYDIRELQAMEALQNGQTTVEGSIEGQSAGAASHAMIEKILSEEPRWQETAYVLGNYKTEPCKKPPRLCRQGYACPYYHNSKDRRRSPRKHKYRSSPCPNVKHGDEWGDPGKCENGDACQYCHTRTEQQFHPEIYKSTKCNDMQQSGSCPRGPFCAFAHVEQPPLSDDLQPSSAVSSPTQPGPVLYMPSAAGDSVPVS
Oligonucleotide,bound/input enrichment [ratio]
AUUUUUGGAAAGGUUCAAGGGGUGUUUUUCCGCAAGUACACUCAGGCUGAGGGUAAAAAGCCCGGUUUGGUGGGCUGGGUUCAGAACACCGACCGGGGCACCGUGCAAGGGCAACUGCAG,0.235
GGAGCUUUAUCUAAGGCUAUUGACAGAGGAACAAGGGGCAUUAGUUUUGUCCUCAGUGCGUCCGUAUUUAAUCUUCUCCCUAUUGUGUUUGAGAUGAUGCUUGUCAGUAGUGUUUUGUAU,1.59
GUUUUUAACGAUGGCAGUUCCAGGGAACUAAUGAACCUCACUGGAACAAUCCCUGUGCCUUACCGAGGUAAUACAUACAAUAUUCCAAUAUGCCUAUGGCUACUGGACACAUACCCAUAU,0.128
GGCAAGGUUCGGCUCCUGGCUGAUCCCACUGGGGCCUUUGGGAAGGAGACAGACUUAUUACCCGAUGAUUCGCUGGUGUCCAUCUUUGGGAAUCGACGUCUCAAGAGGUUCUCCAUGGUG,0.0645
UGCUUUUGCUACCACUGGAAGUUCCUUCUGUUUCUUGUGGAGUACCUUUUGCUGUCUGGGACUUGCCGAUAAUGGUGUUUCCUAGGGCUCCCUCCAGGGCCCUCUGCCUCACUAACUGGA,0.191
UCUCUUGCUACUUGCCAGUUAUCUGAGCCAUUAUUGUGGUUCAUUUUGAGAGUAUUGGAUACCCGUGAUGCCUUGAAAGCAUUUCAUGAUAUGGGUGGUGUUCAGCUCAUAUGCAAUAAU,0.184
AGUCUCACGAACGUAGGAAAUUCAUUUAGUGGCCCACCUAAUCCUUUAGUGUCUAGAUCCCGUAAGUUUCAGAACUCAUCAGUAGAAGAUGAUGAUGACGUUGUUUUUAUUGAACCUGUA,2.06
AAGGAUUCUCUGCCUCGCUUUGUGCGCUCUGAGUUUUAUCAGGAGUUAAUCAAGUAGUAAUUCCGCCAGGCUAUGAAAUCAUCCUGUGAGUUAUUUCCUCCAUAAUAACCCUGCAUUUCC,0.209
GGAACUGUGGUCCAUGGGAAAGUCUUACAGUAUUACCAGGAGUCUGAGAAACCUGAGGAGUCCGGAUCUGUAACUGUACAAAAAGAAUAUUCAUCCUCCUUUGACCGAGUUAUCAAAGAG,0.183
GGCCUGGAGUUCGGCAAGUUGCCAUUUGGUGCCUGUGAAGAUCCUAUCAGUGAACUCCAUUCCGCAACAACGUGGCCUCAUUUGACAGAAGGGAUCAUUGUAGAUAAUGAUGUUUAUUCU,0.172
AUUUAGAAUGUUAAUAAAUUGCUCUGAGUUUCCUCAAGUCCAUUUUGUAAGAUCAGACCACCGGUGGGUGUUGUUUCUUUUAAGUGUGUGUACUGUGUCCAAUGUUACAUUUUUAGAAGU,17.6

# Series 2 — technique: protein binding microarray; molecule type: double-stranded DNA, one strand shown; matrix: in vitro; concentration: not given; baseline: not given; direction: higher = stronger binding
# Target: Histone acetyltransferase KAT6A, winged helix 2, GST fusion (KAT6A, Homo sapiens, UniProt Q92794, residues 85-181)
# Setting: 8-mer, flanks averaged, mean of 2 arrays, mostly near background
# Construct (chain): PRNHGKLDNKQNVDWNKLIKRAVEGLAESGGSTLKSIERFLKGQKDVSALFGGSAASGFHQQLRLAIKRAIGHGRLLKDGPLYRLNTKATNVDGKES
Oligonucleotide,E-score
CTACCAAG,0.0156
AACTGACA,-0.0741
CTCTACGC,-0.0117
GAGAGACA,-0.0729
AGGGTGAA,0.0499
ACCCTTAC,-0.211
GCTAACTA,0.0443
GTCCCGTA,-0.09
ACGCCACA,0.142
AGTAGGCA,0.0709
ATTGGCTA,-0.0689
CCTGTCAG,-0.0235
AATGACGA,0.0273
CCTCGGAC,0.0212
CGGGAAAC,0.187
CGATTTAC,-0.0663
CCTCCGTC,0.0134
AAGAAGCC,0.144
GCCAATAA,0.00459
GGACTTTA,-0.0505
CAGGGCCC,-0.0502
CTCCCGCC,0.141
AACAAACA,0.143
GTCGCGAC,0.284
AGATGCAA,-0.0772

# Series 3 — technique: protein-binding microarray; molecule type: double-stranded DNA, one strand shown; matrix: in vitro; concentration: 2540 nM top; setting: 60-bp whole probe; added: salmon DNA 0.4 mg/ml; baseline: random background probes; direction: higher = stronger binding; all sequences stand within: GCCTAGCAC … GTCTTGATTCGCTTGACGCTGCTG
# Target: Interferon regulatory factor 3, full length, phosphomimetic (IRF3, Homo sapiens, UniProt Q14653, residues 1-427, S386D/S396D/S398D/S402D/T404D/S405D)
# Target sequence (chain): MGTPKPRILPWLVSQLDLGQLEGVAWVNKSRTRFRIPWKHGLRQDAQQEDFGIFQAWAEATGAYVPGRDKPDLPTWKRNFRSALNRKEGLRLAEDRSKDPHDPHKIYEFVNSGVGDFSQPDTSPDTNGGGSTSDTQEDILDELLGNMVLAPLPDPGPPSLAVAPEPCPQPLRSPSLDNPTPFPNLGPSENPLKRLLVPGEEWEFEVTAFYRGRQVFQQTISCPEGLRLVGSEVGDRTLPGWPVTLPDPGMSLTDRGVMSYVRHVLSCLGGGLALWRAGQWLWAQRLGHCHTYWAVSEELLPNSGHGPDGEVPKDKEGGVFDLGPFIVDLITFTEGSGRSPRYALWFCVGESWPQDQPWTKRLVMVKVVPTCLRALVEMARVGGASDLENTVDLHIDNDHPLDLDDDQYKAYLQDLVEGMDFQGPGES
Oligonucleotide,fitted relative affinity [z-score]
TCAGGTTTCGGACTGGGTTAGTGCTAG,4.17
ATTTTAATCACATATACACTGGTGCTA,1.53
TGTCCTTTCTCCATGGGTATGTGCTAG,7.28
GACTGACTGGACACTGGGGACGTGCTA,-0.678
GGCATTTTCGGGTAGATGGCCGTGCTA,1.14
TATAGAGTAGTTTTTCAACCAGTGCTA,0.156
ATTCCTCTCACCTCGGCCTCGTGCTAG,1.44
TCAATTATATATATCATACTGTGCTAG,0.766
GTCGGTCTCCTTTTCCTGACGTGCTAG,5.71
TCACTCTTCTTGCATCTGACTGTGCTA,1.19
GACGATTTCAGTTTAGAGACGTGCTAG,2.81
CTTGCTTCCTAATTCTCTTTGTGCTAG,1.11
TCCTATATCTGAACCGCAGAGTGCTAG,1.15
TTAGGTACCGACTATCGGTTAGTGCTA,1.8
ACTTCATTGCATATAGAAAAGTGCTAG,0.395
TCTTCTGGTGTGTCTGAAGAGTGCTAG,0.382

# Series 4 — technique: RNA Bind-n-Seq; molecule type: RNA; matrix: in vitro; concentration: 1 µM; setting: whole 134-nt RNA, ends assumed; added: 150 mM KCl; baseline: input library; direction: higher = stronger binding
# Target: Ras GTPase-activating protein-binding protein 1, C-terminal RGG region (G3BP1, Homo sapiens, UniProt Q13283)
# Sequence of UniProt Q13283 (whole entry, looked up): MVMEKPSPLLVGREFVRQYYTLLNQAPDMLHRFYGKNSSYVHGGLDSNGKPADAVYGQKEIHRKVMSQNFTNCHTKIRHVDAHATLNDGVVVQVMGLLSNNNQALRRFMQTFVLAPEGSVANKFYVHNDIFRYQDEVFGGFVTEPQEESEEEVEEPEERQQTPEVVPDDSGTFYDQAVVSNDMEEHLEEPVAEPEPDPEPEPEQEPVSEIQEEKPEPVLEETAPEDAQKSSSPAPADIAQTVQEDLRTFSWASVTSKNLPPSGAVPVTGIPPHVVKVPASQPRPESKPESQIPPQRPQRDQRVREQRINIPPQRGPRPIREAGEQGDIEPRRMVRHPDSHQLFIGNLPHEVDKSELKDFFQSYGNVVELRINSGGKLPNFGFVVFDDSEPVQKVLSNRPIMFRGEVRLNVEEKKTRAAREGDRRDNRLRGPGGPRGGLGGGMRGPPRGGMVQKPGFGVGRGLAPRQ
# All sequences stand within: GGGAGUUCUACAGUCCGACGAUC … UGGAAUUCUCGGGUGUCAAGG
Oligonucleotide,log2 enrichment
UAACUUUAGAGGAGGAUCUGAUGGAUACGGCAGUGGACGUGGAUUUGGGGAUGGCUAUAAUGGGUAUGGAGGAGGACCUGGAGGUGGCAA,-1.48
UUGCUUCAAGAAGAUCCCUAAGCUGUAGAACAUUUUAACGUUGAUGCCACAACGCAGAUUGAUGCCUUGUAGAUGGAGCUUGCAGAUGGA,-0.817
AGUCCUGUGCUACACAUCGUAUGUACCGAAUCGGGUUUUUUUGGGAAAAAGGGUGGGAAAGUAUUAUGUUACGCCGUUCGGAUCUGCACU,1.14
CAAGUCCUGUGCUACACAUCGUAUGUACCGAAUCGGGUUUGGGUUUGGGGUUUGGGAAAGUAUUAUGUUACGCCGUUCGGAUCUGCACUU,2.18
UAACUUUAGAGGAGGAUCUGAUGGAUAUGGCAGUGGACGUGGAUUUGGGGAUGGCUAUAAUGGGGAUGGAGGAGGACCUGGAGGUGGCAA,-0.761
UCAAGUCCUGUGCUACACAUCGUAUGUACCGAAUCGGGUGGGAGGGAAAAAGGGAAAGUAUUAUGUUACGCCGUUCGGAUCUGCACUUCC,1.32
GGACAAGAAUCCUUCAAGAAACAGGAAAAAACUCCUAAAACACCAAAAGGACCUAGUUCUGUAGAAGACAUUAAAGCAAAAAUGCAAGCA,-0.731
CUGUGCUACACAUCGUAUGUACCGAAUCGGGGUUUUUGGGGUUUUUGGGGAAAAAAAGGGGAAAGUAUUAUGUUACGCCGUUCGGAUCUG,-0.175
UGGGAGGUGGAUUUUGUUUAUUUUUUUAGCUCAUUUCCAGGGGUGGGAAUUUUUUUUUAAUAUGUGACAUGAAUAAAGUUGUUUUUGAAA,3.73
CUCAAGUCCUGUGCUACACAUCGUAUGUACCGAAUCGGAGGUGGUUUUUUUGGAAAGUAUUAUGUUACGCCGUUCGGAUCUGCACUUCCA,-1.14
UGCUGUUCAGGUGGUGGAGAAGAAGAUGGAACCCCAGGCUGCCUGGCUACAGAGCCUGGAGGGAUGCAUGUGGACAGCCAAGAAGAAGCU,-2.04
UGAAGACACAGCAUCCACCCGAUCUUCAUUCACUGUCCAAGACCUUAAACCUUUUACAGAAUAUGUGUUUAGGAUUCGCUGUAUGAAGGA,-0.509
AAGUCCUGUGCUACACAUCGUAUGUACCGAAUCGGGGAAAAGGAAAAGGAAAAGGGGAAAGUAUUAUGUUACGCCGUUCGGAUCUGCACU,-1.44
UCAAGUCCUGUGCUACACAUCGUAUGUACCGAAUCGGUGGUUUGGAAAAAAAGGAAAGUAUUAUGUUACGCCGUUCGGAUCUGCACUUCC,-1.26

# Excerpt of the above (series 1):
Oligonucleotide,bound/input enrichment [ratio]
AGUCUCACGAACGUAGGAAAUUCAUUUAGUGGCCCACCUAAUCCUUUAGUGUCUAGAUCCCGUAAGUUUCAGAACUCAUCAGUAGAAGAUGAUGAUGACGUUGUUUUUAUUGAACCUGUA,2.06
UGCUUUUGCUACCACUGGAAGUUCCUUCUGUUUCUUGUGGAGUACCUUUUGCUGUCUGGGACUUGCCGAUAAUGGUGUUUCCUAGGGCUCCCUCCAGGGCCCUCUGCCUCACUAACUGGA,0.191
GGAGCUUUAUCUAAGGCUAUUGACAGAGGAACAAGGGGCAUUAGUUUUGUCCUCAGUGCGUCCGUAUUUAAUCUUCUCCCUAUUGUGUUUGAGAUGAUGCUUGUCAGUAGUGUUUUGUAU,1.59
AUUUAGAAUGUUAAUAAAUUGCUCUGAGUUUCCUCAAGUCCAUUUUGUAAGAUCAGACCACCGGUGGGUGUUGUUUCUUUUAAGUGUGUGUACUGUGUCCAAUGUUACAUUUUUAGAAGU,17.6
GGCAAGGUUCGGCUCCUGGCUGAUCCCACUGGGGCCUUUGGGAAGGAGACAGACUUAUUACCCGAUGAUUCGCUGGUGUCCAUCUUUGGGAAUCGACGUCUCAAGAGGUUCUCCAUGGUG,0.0645
